Results gathered from unrelated publications.
A part holds a random share of what one study measured. Substitutions count along the parent as printed.

Series 1
Target: RNA binding protein fox-1 homolog 2, RRM domain, GST-SBP tag (RBFOX2, Homo sapiens, UniProt O43251-10, residues 100-194)
Method: RNA Bind-n-Seq
Molecule type: RNA
Medium: in vitro
Concentration: 365 nM
Notes: natural RNA segment, single round, ends assumed
Relative to: no-protein control
Direction: higher = stronger binding
Target sequence (chain): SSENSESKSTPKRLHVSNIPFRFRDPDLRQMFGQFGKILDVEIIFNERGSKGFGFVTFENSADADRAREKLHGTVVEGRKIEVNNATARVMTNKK
Sequence	RBNS enrichment (R)
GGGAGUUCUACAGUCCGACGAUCCCAAGUCAUCAAGGCCCCGCUCCUCUCCUCGGAAGGGUCCCCCACCCCCCGGCAGCUUGACACUGAAUCCAGUGUCAAUUUGGGGAGAAAGCAGUUUUGUCUUGGAAUUUUGGAAUUCUCGGGUGCCAA	0.308
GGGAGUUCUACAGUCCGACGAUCAGGGUUUCCUCUCAGUCAUUUGUUUACCAGAAACAUGAAAACUGCCUGUCUGGCCGGGCCGCACUUGUGGCCCCCGGGACCCCACCUCUGGCCCCACCUCCCUCAAGUCUUGGAAUUCUCGGGUGCCAA	0.33
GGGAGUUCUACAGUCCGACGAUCCCUGGCCACUGAUGGCUGAGUUUUAUGGCAAGAGGCUGAGAUGGGCACAGGGAGCCACUGAGGGUCACCCUGCCUUCCUCCUUGCUGGCCCAGCUGCUGUUUAUUUAUGCUGGAAUUCUCGGGUGCCAA	0.565
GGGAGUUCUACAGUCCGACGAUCUGUAAAACACAUGGCUUCUUCUGUGUAUAUUUUUUAAAAUUAAAGACUUGCACAUUUAAAAAACUGUUUUGUGGAUCCAGUUUGUGAACUUAUCAGUUGACAGAAGGACUUGGAAUUCUCGGGUGCCAA	0.44
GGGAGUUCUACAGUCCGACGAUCAGAGUGGGAGGCUGCAGCAGUAAGGUGGCUUUUUAUCAAAGGUUUUUAUAUAAAUUUCCCACGUUACGGGGCCUUGUUUUGCAUGCUGAUGAAGAACUACUUAAAACUAAUGGAAUUCUCGGGUGCCAA	11.5
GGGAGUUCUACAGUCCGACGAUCAGGCUUCCGCCAAGCUCUGGUCCCGAAGAGGCUGUGCGAGCCCUUCCCGGCCCUCCCCAGGGCCCCCCGCCCCCUCCUCUGCCUGCUGCGUGGAGGCAGCCAUGGGAAGGUGGAAUUCUCGGGUGCCAA	0.329
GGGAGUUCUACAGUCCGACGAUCGACUUGGCCAGUGGUUUAAGUACCUGCCCCUUCACCUCUCAGACGAGGCAGCUGACGAGGCAGCUGGCCCAGUCUUGGGAGUCUGCUCAGGACAGUGGUGGAGCUGGGUCUGGAAUUCUCGGGUGCCAA	0.409
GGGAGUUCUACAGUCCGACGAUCACUACACAGUGUGCACACACUGGGGACUCCCCAGUCCUCCUGACUAUUAUGGGGACACAGGAAAGACCUCAGCCUCAGUUGUAAACCUGCUCUUUGUCUGCUCAAAGGAAUGGAAUUCUCGGGUGCCAA	0.239
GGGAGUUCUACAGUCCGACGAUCCUACUUCAUUACCGCACUUUCUUGUAUUAAUAGUAUCUUAAAGCUGUUUUUAUUUUUCUUAGAAAUGAGAGACACUGGCAGUCAUAACUGUACUAGUUACUAUGAACAUGUGGAAUUCUCGGGUGCCAA	0.426
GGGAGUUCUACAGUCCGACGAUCCACUCUUAUUCCCAAACUACAGAAUAAUGUGUUAAACAUGCUAAAUAGUUCUAUCAGGAAAACAAAUCACUGUAUUUAUCUCCGCAGGCUAUUUGUUCAGAGAGGCCUUUUGGAAUUCUCGGGUGCCAA	0.32
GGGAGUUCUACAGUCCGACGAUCCUUUCUCGGUCUUUGUCUCUCUUUCUUCCUUUCCUUUCUAUUUCCCCCAGGGUCUCCUGUUAACCAGGCUGACUUCGAACUCACAACCUUUAAUUUCUAACCCUACCACAUGGAAUUCUCGGGUGCCAA	0.963
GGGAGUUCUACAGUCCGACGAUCUCUGCACGACUGAAGGGCCAGGCGUAAAGAUGACUGACAGAAGUGUAGACUAGAGGAGAGGCUAGAGAGCAUGUGCUGCGGGGCCUAAUUAUAGGUCCUCACUCUUGACAUGGAAUUCUCGGGUGCCAA	1.97

Series 2
Target: Sal-like protein 4, full length isoform A (SALL4, Homo sapiens, UniProt Q9UJQ4, residues 1-1053)
UniProt Q9UJQ4, sequence (whole entry, looked up): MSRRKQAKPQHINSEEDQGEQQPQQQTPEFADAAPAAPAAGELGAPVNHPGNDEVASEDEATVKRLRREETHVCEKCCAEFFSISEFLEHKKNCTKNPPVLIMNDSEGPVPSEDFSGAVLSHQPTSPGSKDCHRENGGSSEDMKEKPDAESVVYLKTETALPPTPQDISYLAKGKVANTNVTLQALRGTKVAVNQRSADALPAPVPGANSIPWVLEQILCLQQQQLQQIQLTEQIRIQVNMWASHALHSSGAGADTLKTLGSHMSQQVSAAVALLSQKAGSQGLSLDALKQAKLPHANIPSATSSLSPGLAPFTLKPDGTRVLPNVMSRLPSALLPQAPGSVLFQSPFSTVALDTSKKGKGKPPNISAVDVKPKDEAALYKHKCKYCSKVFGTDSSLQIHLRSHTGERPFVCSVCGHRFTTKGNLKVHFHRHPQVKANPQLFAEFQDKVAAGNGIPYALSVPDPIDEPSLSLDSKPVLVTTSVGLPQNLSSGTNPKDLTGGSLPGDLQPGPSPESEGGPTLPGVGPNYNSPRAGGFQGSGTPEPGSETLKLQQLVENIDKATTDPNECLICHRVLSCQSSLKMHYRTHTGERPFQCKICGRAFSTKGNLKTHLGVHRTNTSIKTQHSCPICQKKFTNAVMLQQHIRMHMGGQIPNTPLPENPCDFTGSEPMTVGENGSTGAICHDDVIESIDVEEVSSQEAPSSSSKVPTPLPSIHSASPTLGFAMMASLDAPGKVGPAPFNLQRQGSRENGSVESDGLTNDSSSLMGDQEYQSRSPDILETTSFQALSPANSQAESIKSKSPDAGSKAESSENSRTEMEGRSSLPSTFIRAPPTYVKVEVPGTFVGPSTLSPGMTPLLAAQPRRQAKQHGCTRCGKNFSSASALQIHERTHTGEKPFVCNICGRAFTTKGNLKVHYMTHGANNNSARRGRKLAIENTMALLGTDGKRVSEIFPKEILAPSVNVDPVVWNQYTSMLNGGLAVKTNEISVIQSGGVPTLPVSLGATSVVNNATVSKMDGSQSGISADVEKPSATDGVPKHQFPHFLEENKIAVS
Method: universal PBM
Molecule type: double-stranded DNA, one strand shown
Medium: in vitro
Concentration: 600 nM
Notes: 8-mer, flanks averaged, mean of replicates
Direction: higher = stronger binding
Sequence	E-score
GGTGGTGA	-0.16
GCGACTTA	-0.0648
ACTGGGCG	-0.286
ACTCCAGA	-0.00279
ATCAGGCA	-0.0985
ACAACGGC	-0.241
GATTCCGA	-0.0348
AGTTGGTG	-0.272
ACCGCTGC	-0.379
CTACGACA	0.0431
AGGTAGCG	-0.16
AAGAACTG	-0.0419
ATTAAAGG	0.286
AAGGACCA	-0.25
ACCCCTGG	-0.318
CGGTACAC	-0.248
ATGCCCAC	-0.164
ACCGTTCA	-0.141
GGGGGAAC	-0.35

Series 3
Target: Ras GTPase-activating protein-binding protein 1, C-terminal RGG region (G3BP1, Homo sapiens, UniProt Q13283)
UniProt Q13283, sequence (whole entry, looked up): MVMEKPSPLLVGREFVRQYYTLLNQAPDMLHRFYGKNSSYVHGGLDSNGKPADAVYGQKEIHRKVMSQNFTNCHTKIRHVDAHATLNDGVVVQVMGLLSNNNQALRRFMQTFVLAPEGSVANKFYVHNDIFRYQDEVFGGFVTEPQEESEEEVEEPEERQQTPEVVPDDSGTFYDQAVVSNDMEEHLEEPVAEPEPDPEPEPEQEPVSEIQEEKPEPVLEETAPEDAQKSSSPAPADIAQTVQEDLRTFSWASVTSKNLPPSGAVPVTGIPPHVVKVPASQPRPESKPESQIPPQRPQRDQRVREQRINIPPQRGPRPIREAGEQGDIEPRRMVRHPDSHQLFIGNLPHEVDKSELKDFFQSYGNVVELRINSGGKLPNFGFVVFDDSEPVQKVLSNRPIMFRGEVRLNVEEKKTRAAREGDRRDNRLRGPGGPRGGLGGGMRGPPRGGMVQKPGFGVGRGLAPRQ
Method: RNA Bind-n-Seq
Molecule type: RNA
Medium: in vitro
Concentration: 1 µM
Notes: whole 134-nt RNA, ends assumed
With: 150 mM KCl
Relative to: input library
Direction: higher = stronger binding
Sequence	log2 enrichment
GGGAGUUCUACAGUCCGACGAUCAGUCCUGUGCUACACAUCGUAUGUACCGAAUCGGGGAGGGGUUUUUUUGGGGAGGGGAAAGUAUUAUGUUACGCCGUUCGGAUCUGCACUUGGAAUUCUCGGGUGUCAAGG	2.2
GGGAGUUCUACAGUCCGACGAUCCCUGUGCUACACAUCGUAUGUACCGAAUCGGGGUUUGGGGAAAAAGGGGUUUUUUUGGGGAAAGUAUUAUGUUACGCCGUUCGGAUCUGCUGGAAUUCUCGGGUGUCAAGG	1.32
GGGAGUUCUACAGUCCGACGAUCGUCCUGUGCUACACAUCGUAUGUACCGAAUCGGGGAAAGGGGAAAGGGGAAAAAGGGGAAAGUAUUAUGUUACGCCGUUCGGAUCUGCACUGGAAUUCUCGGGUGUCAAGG	2.64
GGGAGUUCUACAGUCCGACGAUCACCAUGCAGGUGGGCAUCUUUGGGAAGUGGGGCAAGGGGGGGAUAGGGAGGGGGGUAACACUUUGGGAACAGGUGGUCCCAGAAAGUUUCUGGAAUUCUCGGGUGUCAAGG	-0.665
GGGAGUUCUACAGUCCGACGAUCCCUGUGCUACACAUCGUAUGUACCGAAUCGGGGUUUUUUGGGUUUUUUGGGUUUUUUGGGAAAGUAUUAUGUUACGCCGUUCGGAUCUGCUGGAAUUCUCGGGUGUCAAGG	-1.24
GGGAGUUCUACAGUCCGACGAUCUGGCCCUGGUGGCAUACGGGGAGGAAGAGGUGGCCUCAUGGAUCGUGGUGGUCCCGGUGGAAUGUUCAGAGGUGGCCGUGGUGGAGACAGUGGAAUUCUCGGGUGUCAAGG	1.87
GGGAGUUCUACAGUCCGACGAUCUCAAGUCCUGUGCUACACAUCGUAUGUACCGAAUCGGAAAGGAAAGGGAAAGGGGAAAGUAUUAUGUUACGCCGUUCGGAUCUGCACUUCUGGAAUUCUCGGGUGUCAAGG	-1.48
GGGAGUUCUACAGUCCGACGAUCCAAGUCCUGUGCUACACAUCGUAUGUACCGAAUCGGUUUUGGUUUUGGGGUUUUGGAAAGUAUUAUGUUACGCCGUUCGGAUCUGCACUUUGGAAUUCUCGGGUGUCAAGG	-1.85
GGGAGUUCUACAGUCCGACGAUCGCAGGAAGUAAAAACAAAUGGAAAUGCUUCGGAUAGUGGCAGGGGUGGGGGUUGCUAAGGAAAGGGUGCGAUGGGAGUGGGUAAAGAGUUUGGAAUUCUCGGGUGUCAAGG	1.82
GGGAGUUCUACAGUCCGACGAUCUAACUUUAGAGGAGGAUCUGAUGGAUAUGGCAGUGGACGUGGAUAUGGGGAUGGCUAUAAUGGGUAUGGAGGAGGACCUGGAGGUGGCAAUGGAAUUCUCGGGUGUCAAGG	-1.01
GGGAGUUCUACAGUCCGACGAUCUCCUCAAGUCCUGUGCUACACAUCGUAUGUACCGAAUCGGCGGCGGGCGGGGAAAGUAUUAUGUUACGCCGUUCGGAUCUGCACUUCCAGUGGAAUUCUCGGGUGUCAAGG	-0.322
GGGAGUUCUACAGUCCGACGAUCUAACUUUAGAGGAGGAUCUGAUGGAUAUGGCAGGGGACGUGGAUUUGGGGAUGGCUAUAAUGGGUAUGGAGGAGGACCUGGAGGUGGCAAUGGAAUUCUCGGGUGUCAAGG	0.669
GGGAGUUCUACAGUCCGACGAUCUGGCCCUGGUGGCAUGCGGGGAGGAAGAGGUGGCCUCACGGAUCGUGGUGGUCCCGGUGGAAUGUUCAGAGGUGGCCGUGGUGGAGACAGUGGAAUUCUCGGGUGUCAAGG	2.15
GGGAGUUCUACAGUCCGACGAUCCAACUUUAGAGGAGGAUCUGAUGGAUAUGGCAGUGGACGUGGAUUUGGGGAUGGCUAUAAUGGGUAUGGAGGAGGACCUGGAGGUGGCAAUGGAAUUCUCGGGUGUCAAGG	-1.25

Series 4
Target: Interferon regulatory factor 7, full length, phosphomimetic (IRF7, Homo sapiens, UniProt Q92985, residues 1-503, S471D/S472D/S475D/S476D/S477D/S483D/S484D/S487D)
Method: protein-binding microarray
Molecule type: double-stranded DNA, one strand shown
Medium: in vitro
Concentration: 2200 nM top
Notes: 60-bp whole probe
With: salmon DNA 0.4 mg/ml
Relative to: random background probes
Direction: higher = stronger binding
All sequences stand within: GCCTAGCAC … GTCTTGATTCGCTTGACGCTGCTG
Residues (chain): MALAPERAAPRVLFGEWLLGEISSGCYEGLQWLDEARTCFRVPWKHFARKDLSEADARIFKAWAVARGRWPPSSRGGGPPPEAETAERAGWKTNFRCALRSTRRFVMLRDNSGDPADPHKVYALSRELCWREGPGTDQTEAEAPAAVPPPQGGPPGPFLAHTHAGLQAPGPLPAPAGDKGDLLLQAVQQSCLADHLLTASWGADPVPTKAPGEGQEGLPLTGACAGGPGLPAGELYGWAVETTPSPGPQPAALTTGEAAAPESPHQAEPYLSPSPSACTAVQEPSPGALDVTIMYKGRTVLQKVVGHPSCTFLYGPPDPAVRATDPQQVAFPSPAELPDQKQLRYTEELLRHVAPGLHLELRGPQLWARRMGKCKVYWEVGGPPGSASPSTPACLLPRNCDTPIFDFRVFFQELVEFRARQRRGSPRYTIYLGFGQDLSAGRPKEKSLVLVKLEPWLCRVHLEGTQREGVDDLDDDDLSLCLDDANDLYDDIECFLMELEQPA
Sequence	fitted relative affinity [z-score]
GACAGTTTCGGGTATCGGGACGTGCTA	7.6
CCTAGGGGCGGGGCCAAATGGTGCTAG	0.189
TTAGAACTGAGAGTGGATTAGTGCTAG	-0.804
GACGAATTGAGTTTCGAGACGTGCTAG	2.11
GGTTGTTTCTAATATTCTGCTGTGCTA	1.22
ATCGTAAGCAAAAATGATTGGTGCTAG	-0.494
TTAGATCTCACACTGGATTAGTGCTAG	0.256
GACGGTTTCAGTATCGGGACGTGCTAG	2.66
TTAGGTTTGGGGTATCGGTTAGTGCTA	0.503
GACGGACTGGGTACCGGGACGTGCTAG	-1.01
TCAATTTCCATTTTCTAACTGTGCTAG	4.76
GCCGGTTTCGGTTCCGGGACGTGCTAG	13.3
GTCTGTTTGGGTCTTGTCTGGTGCTAG	1.32
GACGGCCTGGGGACTGGGGACGTGCTA	-1.07
GACGGTATCGACACTGCGGACGTGCTA	0.00469
TTGGGTCTCGGACTGGGTTAGTGCTAG	-0.232
GGGAGCTATTAATTATTTTGGTGCTAG	-0.337
GACGGTTTCAGGTATCGGGACGTGCTA	2.41
TCACAAATGCCCTCTCCAACTGTGCTA	0.771
GACGGGCTGGGGACTGGGGACGTGCTA	-0.828
TTAGGTTTCGACTTCCGGTTAGTGCTA	8.38
GAAGCCAGCTCTTTCGTTACGTGCTAG	2.26

Series 5
Target: CCND2, cyclin fold, Cln2 fusion (human)
Method: yeast growth competition, sequencing
Medium: yeast
Notes: strong parent motif
Relative to: not given
Direction: higher = stronger binding
Starting sequence: E2F1 docking peptide (human); PPVKRRLDFETDH
Change	normalised enrichment score
PPVKRRLDEETDH [F9E]	0.393
PPVKRRLDFRTDH [E10R]	1.14
PFVKRRLDFETDH [P2F]	0.496
PPVKRRLDFEWDH [T11W]	1.91
PPVKRRLDFVTDH [E10V]	1.19
PPVKRRLDFLTDH [E10L]	1.16
PPVKRRVDFETDH [L7V]	0.368
PPVKRRLDFNTDH [E10N]	2.17
PPVDRRLDFETDH [K4D]	0.364
PPVKRRLDFETQH [D12Q]	1.87
PPVKRRLDHETDH [F9H]	-0.0881
PPVKRRLVFETDH [D8V]	1.72
PPVKKRLDFETDH [R5K]	0.619
PPVVRRLDFETDH [K4V]	1.8
PPVKRRLRFETDH [D8R]	0.716
PPVKTRLDFETDH [R5T]	0.212
PPVKRRLDFEKDH [T11K]	1.63
PPVKRYLDFETDH [R6Y]	0.595
PPVHRRLDFETDH [K4H]	0.699
